Measurements gathered from unrelated publications.
A part holds a random share of what one study measured.
Chain of UniProt Q86UE8 (whole entry, looked up): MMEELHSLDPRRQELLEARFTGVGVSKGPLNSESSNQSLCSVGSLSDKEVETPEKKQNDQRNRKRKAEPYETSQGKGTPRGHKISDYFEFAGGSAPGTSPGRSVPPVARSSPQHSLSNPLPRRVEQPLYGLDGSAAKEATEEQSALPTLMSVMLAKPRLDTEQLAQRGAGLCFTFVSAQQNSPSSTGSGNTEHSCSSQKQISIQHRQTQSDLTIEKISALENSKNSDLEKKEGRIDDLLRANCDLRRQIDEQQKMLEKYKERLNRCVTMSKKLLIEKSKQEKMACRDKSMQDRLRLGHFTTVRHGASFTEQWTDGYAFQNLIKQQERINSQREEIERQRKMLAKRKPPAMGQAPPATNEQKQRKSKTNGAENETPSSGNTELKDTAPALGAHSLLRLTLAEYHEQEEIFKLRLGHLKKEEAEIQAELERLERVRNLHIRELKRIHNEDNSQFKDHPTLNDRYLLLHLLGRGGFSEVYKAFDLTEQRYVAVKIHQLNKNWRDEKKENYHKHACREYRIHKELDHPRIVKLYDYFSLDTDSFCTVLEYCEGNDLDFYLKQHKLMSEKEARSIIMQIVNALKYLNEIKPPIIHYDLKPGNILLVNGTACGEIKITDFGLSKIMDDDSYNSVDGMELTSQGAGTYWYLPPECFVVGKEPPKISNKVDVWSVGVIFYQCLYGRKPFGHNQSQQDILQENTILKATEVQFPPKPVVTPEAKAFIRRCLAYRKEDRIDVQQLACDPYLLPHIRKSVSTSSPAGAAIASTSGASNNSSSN
Chain of UniProt O75914 (whole entry, looked up): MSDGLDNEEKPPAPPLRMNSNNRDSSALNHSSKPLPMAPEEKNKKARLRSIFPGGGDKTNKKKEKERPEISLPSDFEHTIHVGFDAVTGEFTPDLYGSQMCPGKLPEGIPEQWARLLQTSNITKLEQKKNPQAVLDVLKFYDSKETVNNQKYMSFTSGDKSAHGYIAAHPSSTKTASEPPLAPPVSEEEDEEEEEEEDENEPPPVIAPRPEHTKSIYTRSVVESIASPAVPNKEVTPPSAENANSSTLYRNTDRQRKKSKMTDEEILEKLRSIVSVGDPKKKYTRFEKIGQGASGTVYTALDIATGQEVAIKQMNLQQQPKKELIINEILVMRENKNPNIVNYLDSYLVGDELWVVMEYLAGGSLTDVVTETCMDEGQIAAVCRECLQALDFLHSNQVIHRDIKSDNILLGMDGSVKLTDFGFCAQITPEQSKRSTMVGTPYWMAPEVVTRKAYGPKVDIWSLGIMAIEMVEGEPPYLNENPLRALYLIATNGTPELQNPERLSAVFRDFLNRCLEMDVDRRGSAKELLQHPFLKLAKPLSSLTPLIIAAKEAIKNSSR
Chain of UniProt Q02750 (whole entry, looked up): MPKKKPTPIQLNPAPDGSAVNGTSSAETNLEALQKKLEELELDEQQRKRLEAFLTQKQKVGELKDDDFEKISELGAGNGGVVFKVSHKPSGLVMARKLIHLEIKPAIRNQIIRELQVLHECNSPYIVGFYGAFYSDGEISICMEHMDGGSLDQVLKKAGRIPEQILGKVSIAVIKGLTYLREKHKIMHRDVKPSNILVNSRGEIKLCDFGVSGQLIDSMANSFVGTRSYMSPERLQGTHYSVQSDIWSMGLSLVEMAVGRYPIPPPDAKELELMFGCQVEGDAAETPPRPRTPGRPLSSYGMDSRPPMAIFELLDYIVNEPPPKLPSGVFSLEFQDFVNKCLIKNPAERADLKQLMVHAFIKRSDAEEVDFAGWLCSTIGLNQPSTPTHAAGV
Chain of UniProt Q13464 (whole entry, looked up): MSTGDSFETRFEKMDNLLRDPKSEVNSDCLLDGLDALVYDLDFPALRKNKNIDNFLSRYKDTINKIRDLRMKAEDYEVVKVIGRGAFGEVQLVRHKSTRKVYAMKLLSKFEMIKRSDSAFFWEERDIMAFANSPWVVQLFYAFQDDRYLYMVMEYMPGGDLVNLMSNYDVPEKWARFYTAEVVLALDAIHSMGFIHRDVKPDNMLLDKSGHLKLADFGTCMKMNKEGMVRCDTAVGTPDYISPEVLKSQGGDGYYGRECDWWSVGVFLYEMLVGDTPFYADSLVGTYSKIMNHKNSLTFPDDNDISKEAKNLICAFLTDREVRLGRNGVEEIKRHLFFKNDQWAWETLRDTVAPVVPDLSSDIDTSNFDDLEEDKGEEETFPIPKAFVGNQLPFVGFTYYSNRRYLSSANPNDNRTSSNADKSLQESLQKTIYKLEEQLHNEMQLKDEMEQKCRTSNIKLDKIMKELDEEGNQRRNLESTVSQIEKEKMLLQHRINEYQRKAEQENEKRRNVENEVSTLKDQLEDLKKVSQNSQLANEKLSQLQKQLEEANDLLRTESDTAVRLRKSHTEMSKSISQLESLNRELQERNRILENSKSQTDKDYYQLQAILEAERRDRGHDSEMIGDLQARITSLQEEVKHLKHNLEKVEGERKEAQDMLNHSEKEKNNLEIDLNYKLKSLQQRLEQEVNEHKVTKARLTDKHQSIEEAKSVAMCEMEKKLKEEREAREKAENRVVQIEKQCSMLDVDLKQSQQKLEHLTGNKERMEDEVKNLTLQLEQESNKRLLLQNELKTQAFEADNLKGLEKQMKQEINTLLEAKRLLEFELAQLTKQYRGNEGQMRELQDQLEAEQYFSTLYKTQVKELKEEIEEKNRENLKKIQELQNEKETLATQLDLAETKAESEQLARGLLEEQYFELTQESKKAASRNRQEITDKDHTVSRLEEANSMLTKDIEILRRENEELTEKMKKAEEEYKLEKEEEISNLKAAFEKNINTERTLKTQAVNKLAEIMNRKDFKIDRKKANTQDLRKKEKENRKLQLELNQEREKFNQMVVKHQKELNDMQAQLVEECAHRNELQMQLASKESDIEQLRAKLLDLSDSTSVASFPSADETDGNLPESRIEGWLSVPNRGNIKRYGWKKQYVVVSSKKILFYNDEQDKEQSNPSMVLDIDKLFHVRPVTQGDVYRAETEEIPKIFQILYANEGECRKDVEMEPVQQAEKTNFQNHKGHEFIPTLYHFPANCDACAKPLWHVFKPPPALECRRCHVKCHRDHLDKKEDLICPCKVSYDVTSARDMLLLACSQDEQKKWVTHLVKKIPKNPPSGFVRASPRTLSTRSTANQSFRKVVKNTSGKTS
Chain of UniProt Q6P2M8 (whole entry, looked up): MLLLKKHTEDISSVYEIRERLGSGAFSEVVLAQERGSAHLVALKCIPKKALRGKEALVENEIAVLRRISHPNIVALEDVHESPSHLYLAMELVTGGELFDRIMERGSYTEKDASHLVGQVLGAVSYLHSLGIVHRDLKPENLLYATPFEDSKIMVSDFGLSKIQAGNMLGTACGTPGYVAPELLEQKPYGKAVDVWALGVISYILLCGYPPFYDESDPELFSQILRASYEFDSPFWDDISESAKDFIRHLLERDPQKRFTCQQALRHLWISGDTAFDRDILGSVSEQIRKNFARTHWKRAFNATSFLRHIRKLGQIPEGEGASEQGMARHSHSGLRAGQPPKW
Chain of UniProt P51956 (whole entry, looked up): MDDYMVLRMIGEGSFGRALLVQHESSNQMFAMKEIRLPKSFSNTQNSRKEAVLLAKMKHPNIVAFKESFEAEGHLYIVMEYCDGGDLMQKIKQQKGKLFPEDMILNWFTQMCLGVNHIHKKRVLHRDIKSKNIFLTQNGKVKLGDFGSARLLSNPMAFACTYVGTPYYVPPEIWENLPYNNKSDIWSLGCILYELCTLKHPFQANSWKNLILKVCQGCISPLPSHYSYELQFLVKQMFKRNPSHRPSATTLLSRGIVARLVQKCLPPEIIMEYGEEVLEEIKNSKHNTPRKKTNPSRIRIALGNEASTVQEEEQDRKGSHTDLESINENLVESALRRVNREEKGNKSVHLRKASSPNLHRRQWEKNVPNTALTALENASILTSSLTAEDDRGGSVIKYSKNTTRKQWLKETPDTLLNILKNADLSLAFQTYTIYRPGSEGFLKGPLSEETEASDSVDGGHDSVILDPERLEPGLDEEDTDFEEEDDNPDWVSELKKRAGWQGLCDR
Chain of UniProt P06493 (whole entry, looked up): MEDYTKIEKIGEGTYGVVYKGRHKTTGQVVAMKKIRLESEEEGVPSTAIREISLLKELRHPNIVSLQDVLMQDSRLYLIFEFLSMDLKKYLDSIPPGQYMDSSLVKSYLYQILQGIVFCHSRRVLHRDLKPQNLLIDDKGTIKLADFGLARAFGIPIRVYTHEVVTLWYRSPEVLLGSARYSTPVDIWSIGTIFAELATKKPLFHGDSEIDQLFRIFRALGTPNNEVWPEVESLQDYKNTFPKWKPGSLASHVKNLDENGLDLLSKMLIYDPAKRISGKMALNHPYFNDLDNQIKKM
Chain of UniProt Q99720 (whole entry, looked up): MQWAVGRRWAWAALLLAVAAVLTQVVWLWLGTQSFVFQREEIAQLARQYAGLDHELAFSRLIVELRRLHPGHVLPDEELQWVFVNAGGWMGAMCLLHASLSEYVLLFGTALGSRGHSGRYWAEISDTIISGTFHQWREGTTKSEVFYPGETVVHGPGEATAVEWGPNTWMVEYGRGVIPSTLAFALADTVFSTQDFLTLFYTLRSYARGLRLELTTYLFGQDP

Series 1
Organism: Plasmodium berghei
Action: inhibitor
Cells: Huh-7
Strain: GFP-expressing, liver stage
Concentration: 10 µM
Time: 24 h
Relative to: untreated control
SMILES | infection rate [%]
CC1=C(CC(=O)O)c2cc(F)ccc2/C1=C\c1ccc([S+](C)[O-])cc1 (centres unmarked) | 110
Nc1ccc(S(=O)(=O)Nc2ncccn2)cc1 | 104
c1ccc(CC2=NCCN2)cc1 | 104
CO[C@@H]1[C@@H](OC(N)=O)[C@@H](O)[C@H](Oc2ccc3c(O)c(NC(=O)c4ccc(O)c(CC=C(C)C)c4)c(=O)oc3c2C)OC1(C)C | 78.4
Clc1ccccc1CN1CCc2sccc2C1 | 95.4
CN1CCC(=C2c3ccccc3CCc3sccc32)CC1 | 80.8

Series 2
Structure (SMILES): N#Cc1cnc2cnc(NCc3cccnc3)cc2c1Nc1ccc(F)c(Cl)c1
Effect on: enzyme activity
Action: inhibitor
Concentration: 0.5 µM
Relative to: control
target | remaining activity
Cyclin-dependent kinase 9, with cyclin K (CDK9, Homo sapiens, UniProt P50750) | 97.3%
Calcium/calmodulin-dependent protein kinase type 1B (PNCK, Homo sapiens, UniProt Q6P2M8) | 99.8%
Dual specificity mitogen-activated protein kinase kinase 1 (MAP2K1, Homo sapiens, UniProt Q02750) | 86.2%
Calcium/calmodulin-dependent protein kinase type IV (CAMK4, Homo sapiens, UniProt Q16566) | 95.2%
Serine/threonine-protein kinase PAK 3 (PAK3, Homo sapiens, UniProt O75914) | 99.2%
Mitogen-activated protein kinase 1 (MAPK1, Homo sapiens, UniProt P28482) | 105%
Dual specificity protein kinase CLK3 (CLK3, Homo sapiens, UniProt P49761) | 96.7%
Cyclin-dependent kinase 1, with cyclin A (CDK1, Homo sapiens, UniProt P06493) | 88%
Dual specificity protein kinase CLK4 (CLK4, Homo sapiens, UniProt Q9HAZ1) | 63.3%
Serine/threonine-protein kinase tousled-like 2 (TLK2, Homo sapiens, UniProt Q86UE8) | 106%
Rho-associated protein kinase 1 (ROCK1, Homo sapiens, UniProt Q13464) | 99.8%
Myosin-IIIb (MYO3B, Homo sapiens, UniProt Q8WXR4) | 87.9%
Serine/threonine-protein kinase Nek3 (NEK3, Homo sapiens, UniProt P51956) | 56%
Serine/threonine-protein kinase MRCK beta (CDC42BPB, Homo sapiens, UniProt Q9Y5S2) | 124%

Series 3
Target: Beta-1 adrenergic receptor (ADRB1, Homo sapiens, UniProt P08588)
Chain of UniProt P08588 (whole entry, looked up): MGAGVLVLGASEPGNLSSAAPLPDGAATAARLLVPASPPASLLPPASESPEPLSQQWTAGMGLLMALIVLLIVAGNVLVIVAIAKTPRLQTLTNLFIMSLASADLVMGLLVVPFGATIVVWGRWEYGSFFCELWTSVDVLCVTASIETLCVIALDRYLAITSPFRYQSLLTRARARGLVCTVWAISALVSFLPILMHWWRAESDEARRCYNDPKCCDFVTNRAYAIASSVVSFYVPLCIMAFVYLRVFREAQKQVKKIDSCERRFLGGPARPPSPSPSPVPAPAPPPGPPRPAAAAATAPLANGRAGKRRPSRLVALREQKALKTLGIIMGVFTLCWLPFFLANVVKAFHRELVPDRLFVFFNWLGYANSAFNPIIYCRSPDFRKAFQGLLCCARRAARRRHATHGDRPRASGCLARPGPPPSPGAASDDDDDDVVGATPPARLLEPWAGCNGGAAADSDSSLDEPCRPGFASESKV
Action: antagonist
Compound | IC50 [µM]
CC(C)(C)NCC(O)COc1ccccc1-c1ccccc1 (centres unmarked) | ≥ 100
Cc1oc(C(O)c2cccc(O)c2)nc1C(=O)Nc1ccc(N2CCOCC2)cc1 (centres unmarked) | ≥ 100
COc1ccc(CNCc2ccc(C)s2)cc1OCC(O)CN1CCCCC1 (centres unmarked) | ≥ 100
CCOc1ccc(-c2cc3c(=O)n(CC(O)c4ccc(C(C)C)cc4)ccn3n2)cc1 (centres unmarked) | ≥ 100
O=C(Nc1ccccc1C(=O)N1CCOCC1)c1ccc2ccccc2n1 | ≥ 100
O=C1NCCCc2[nH]c(-c3cnn(-c4cccc(F)c4)c3)nc21 | ≥ 100
Fc1ccc(-c2noc([C@@H]3Cc4[nH]cnc4CN3CCCc3ccccc3)n2)cc1Cl | ≥ 100
Cn1nccc1-c1ncc2c(n1)OCCN(c1cccc(C(F)(F)F)c1)C2=O | ≥ 100

Single results of other studies
Compound | target | effect on | method | quantity | result
c1ccc(N2CCN(Cc3nc4ccccc4[nH]3)CC2)nc1 | Sigma non-opioid intracellular receptor 1 (SIGMAR1, Homo sapiens, UniProt Q99720) | binding | radioligand binding | Ki | 1200 nM

A few entries again (series 3):
Compound | IC50 [µM]
COc1ccc(CNCc2ccc(C)s2)cc1OCC(O)CN1CCCCC1 (centres unmarked) | ≥ 100
CCOc1ccc(-c2cc3c(=O)n(CC(O)c4ccc(C(C)C)cc4)ccn3n2)cc1 (centres unmarked) | ≥ 100
